Assay results pooled from the literature.
Lines come from different studies, so protocols differ. ± gives the spread as reported.
ipgm-1: ipgm-1 (Caenorhabditis elegans, UniProt G5EFZ1)
Sequence of UniProt G5EFZ1 (whole entry, looked up): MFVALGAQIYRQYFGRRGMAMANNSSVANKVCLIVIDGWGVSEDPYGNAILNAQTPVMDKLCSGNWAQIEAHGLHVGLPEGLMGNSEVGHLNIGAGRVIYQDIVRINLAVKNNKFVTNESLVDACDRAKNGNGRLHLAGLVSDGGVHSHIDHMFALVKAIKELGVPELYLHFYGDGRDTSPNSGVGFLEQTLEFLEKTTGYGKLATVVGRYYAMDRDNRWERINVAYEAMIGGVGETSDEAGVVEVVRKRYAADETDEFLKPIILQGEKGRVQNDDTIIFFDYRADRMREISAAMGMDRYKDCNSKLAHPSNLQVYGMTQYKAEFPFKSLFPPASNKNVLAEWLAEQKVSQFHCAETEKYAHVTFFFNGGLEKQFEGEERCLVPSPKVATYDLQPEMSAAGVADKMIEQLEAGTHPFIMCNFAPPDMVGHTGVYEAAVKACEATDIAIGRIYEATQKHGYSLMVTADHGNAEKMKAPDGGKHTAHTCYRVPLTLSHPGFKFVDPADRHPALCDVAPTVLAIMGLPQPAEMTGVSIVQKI
Sequence of UniProt P21729 (whole entry, looked up): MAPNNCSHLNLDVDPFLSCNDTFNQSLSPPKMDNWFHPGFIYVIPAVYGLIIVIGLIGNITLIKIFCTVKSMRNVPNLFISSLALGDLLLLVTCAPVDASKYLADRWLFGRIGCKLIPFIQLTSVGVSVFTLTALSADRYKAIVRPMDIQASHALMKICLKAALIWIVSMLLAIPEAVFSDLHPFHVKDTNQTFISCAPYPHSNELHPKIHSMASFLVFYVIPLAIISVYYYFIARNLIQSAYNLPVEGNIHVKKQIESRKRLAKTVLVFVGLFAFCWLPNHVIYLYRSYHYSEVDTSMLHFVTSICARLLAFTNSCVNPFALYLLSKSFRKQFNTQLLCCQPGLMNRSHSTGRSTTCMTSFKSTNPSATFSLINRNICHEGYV
Sequence of UniProt P61073 (whole entry, looked up): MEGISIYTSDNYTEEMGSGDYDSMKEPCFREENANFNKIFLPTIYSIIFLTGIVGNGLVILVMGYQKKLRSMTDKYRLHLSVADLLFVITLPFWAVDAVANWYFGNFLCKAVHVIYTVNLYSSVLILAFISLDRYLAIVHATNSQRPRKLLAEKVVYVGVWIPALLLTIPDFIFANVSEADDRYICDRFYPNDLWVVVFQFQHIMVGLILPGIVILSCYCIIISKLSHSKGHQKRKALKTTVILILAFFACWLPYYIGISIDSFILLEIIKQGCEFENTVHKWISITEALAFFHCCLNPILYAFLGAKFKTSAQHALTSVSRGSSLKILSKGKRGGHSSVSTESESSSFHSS

Nc1nc2c([C@@H]3O[C@@H]4COP(=O)(O)O[C@H]5[C@@H](O)[C@H](n6cnc7c(=O)[nH]c(N)nc76)O[C@@H]5COP(=O)(O)O[C@H]4[C@H]3O)snc2c(=O)[nH]1 — emission maximum (water): 456 nm
O=C(N=P12CN3CN(CN(C3)C1)C2)c1ccccn1.[Cl][Pd][Cl] — stability time (NMR; DMSO; room temperature): > 7 days
CN[C@](C)(C[18F])C(=O)O — tracer uptake (MDA-MB-468 tumour model; host not given, lung; 1 h, tumour-bearing): 1.5 %ID/g
O=C(O)CCC(NP(=O)(O)OCCC[C@@H](NC(=O)CCC(NC(=O)c1ccc([18F])cc1)C(=O)O)C(=O)O)C(=O)O (some centres unmarked) — tracer uptake (CWR22Rv1 tumour model; host not given, tumour; intravenous, 2 h, tumour-bearing): 1.57 %ID/g
CCCC[C@H](NC(=O)CNC(=O)CNC(=O)c1ccc(NN)nc1)C(=O)N[C@H]1CC(=O)NCCCC[C@@H](C(N)=O)NC(=O)[C@H](Cc2c[nH]c3ccccc23)NC(=O)[C@H](CCCNC(=N)N)NC(=O)[C@@H](Cc2ccccc2)NC(=O)[C@H](Cc2c[nH]cn2)NC1=O [technetium-99m labelled] — tissue uptake ratio (C57 mouse, B16/F1 melanoma-bearing; intravenous, 24 h; baseline: tumour over skin): 34.9
c1ccc(CN2CCNCCN(Cc3ccccc3)CCNCC2)cc1 — IC90 (Leishmania donovani; parasite growth, resazurin; 72 h, promastigote): > 20 µM
CC[N+](C)(CC)Cc1cc(Nc2ccnc3cc(Cl)ccc23)ccc1O — CC50 (Vero WNV replicon cells; 24 h): 23.2 ± 10.8 µM
C[C@@](O)(C(F)F)[C@H](NC(=O)c1ccc(C#CC#CC2CC2)cc1)C(=O)NO — apparent volume of distribution (Vz/F) (CD-1 mice; oral, 40 mg/kg, fasted): 8.9 ± 3.2 L/kg
CN(C)CC1CCCCC1(O)c1cccc(O)c1 (centres unmarked) — Papp A to B (P-glycoprotein; Caco-2 TC7; 1 µM, 3 h, pH 6.8 apical, 7.4 basolateral, together with: cyclosporin A 10 µM): 7.3 ± 0.2 ×10⁻⁶ cm/s
CN1C(=O)[C@@H](Cc2ccc(O)cc2)NC(=O)CNC(=O)[C@H](Cc2ccc3ccccc3c2)NC(=O)[C@H](CCCNC(=N)N)NC(=O)[C@H]1CCCNC(=O)c1ccc(CNC(=O)CN2CCN(CC(=O)O)CCN(CC(=O)O)CCN(CC(=O)O)CC2)cc1 [gallium-68 labelled] — SUVmean (CXCR4 (Homo sapiens, UniProt P61073); PET; human, NSCLC lesion): 2.7
COc1cc(C(=O)NCCOCCOCCOCCNC(=O)c2ccc([18F])nc2)ccc1NC(=O)C1NC(CC(C)(C)C)C(C#N)(c2ccc(Cl)cc2F)C1c1cccc(Cl)c1F (centres unmarked) — tracer uptake (SJSA-1 tumour model; host not given, lung; 1 h, tumour-bearing): 1.17 %ID/g
CCC(=O)N(C)c1ccc(Cl)c(Cl)c1 — revertants (Escherichia coli; Ames test; WP2 uvrA; 0.50 mg/plate, without S9 activation): 41 ± 8.1 revertants/plate
Nc1ccc(/C=C/C(=O)N2CCc3c(oc4c(-c5ccc(F)cc5)cc(-c5ccc(C(=O)N6CCC(F)(F)CC6)cn5)cc34)C2)cn1 — apoptotic cells (MIA PaCa-2; annexin V/PI flow cytometry; 2 µM, 72 h): 40.3%
COc1ccc(CNc2nc(N3CCC[C@H]3CO)ncc2C(=O)NN)cc1Cl — revertant count (Salmonella typhimurium; TA100; 250 µg/plate, 48 h): 174 ± 13
CCCCCc1cc(OC(=O)C(NC(=O)CCC(=O)O)C(C)C)c2c(c1)OC(C)(C)C1CCC(C)=CC21 (centres unmarked) — Papp (isolated rabbit cornea; 3 h, pH 7.4, 34 °C, donor 1.5% HPβCD): 14.3 ± 0.63 ×10⁻⁶ cm/s
CC(C)[C@@H]1NC(=O)[C@H](CCCNC(=N)N)NC(=O)[C@H](Cc2ccc(O)cc2)NC(=O)[C@H](CO)NC(=O)[C@H](Cc2ccc(O)cc2)N(C)C(=O)[C@H](CC(N)=O)NC(=O)CNC(=O)[C@H](Cc2ccc(O)cc2)N(C)C(=O)[C@H](Cc2ccccc2)N(C)C(=O)[C@H](CC(=O)O)NC(=O)[C@H](Cc2ccc(O)cc2)NC(=O)[C@H](Cc2ccccc2)N(C)C(=O)[C@H](Cc2ccc(O)cc2)N(C)C(=O)[C@H](Cc2ccc(O)cc2)NC(=O)CSC[C@@H](C(N)=O)NC(=O)[C@@H]2CCCN2C1=O — AC50 (ipgm-1; enzyme activity): 0.933 µM
CCCNC(=O)[C@H](CC(C)C)NC(=O)[C@H](Cc1c[nH]cn1)NC(=O)CNC(=O)[C@@H](NC(=O)[C@H](C)NC(=O)[C@H](Cc1c[nH]c2ccccc12)NC(=O)[C@H](CCC(N)=O)NC(=O)[C@@H](Cc1ccccc1)NC(=O)CCCCCNC(=O)CN1CCN(CC(=O)O)CCN(CC(=O)O)CCN(CC(=O)O)CC1)C(C)C [indium-111 labelled] — tissue uptake (Gastrin-releasing peptide receptor (Mus musculus, UniProt P21729); CF-1 mice, carcass; intravenous, dose not given, 1 h, together with: bombesin 100 µg (blocking)): 0.2 ± 0.02 %ID/g
COc1ccc(C[C@H]2C(=O)N[C@@H](Cc3ccc(O)cc3)C(=O)N3CCC[C@H]3C(=O)NCC(=O)N[C@@H]([C@@H](C)O)C(=O)N[C@@H](C)C(=O)N[C@@H](CCC(N)=O)C(=O)N(C)[C@@H](Cc3ccc(O)cc3)C(=O)N[C@@H]([C@@H](C)O)C(=O)N[C@H](C(N)=O)CSCC(=O)N[C@H](Cc3ccc(O)cc3)C(=O)N[C@@H](Cc3c[nH]c4ccccc34)C(=O)N(C)[C@@H](Cc3ccc(O)cc3)C(=O)N[C@@H](CC(=O)O)C(=O)N(C)[C@@H](CO)C(=O)N(C)[C@@H](Cc3ccc(O)cc3)C(=O)N2C)cc1 — AC50 (ipgm-1; enzyme activity): 34.7 µM
COc1ccc(CNc2nc(N3CCC[C@H]3CO)ncc2C(=O)NNC(=O)c2cnc(N3CCC[C@H]3CO)nc2NCc2ccc(OC)c(Cl)c2)cc1Cl — revertant count (Salmonella typhimurium; TA97a; 125 µg/plate, 48 h, together with: rat liver S9): 146 ± 32
O=C(O)CCC(NP(=O)(O)OCCC[C@@H](NC(=O)CCC(NC(=O)CCCCCNC(=O)CCCCCNC(=O)c1ccc([18F])cc1)C(=O)O)C(=O)O)C(=O)O (some centres unmarked) — tracer uptake (CWR22Rv1 tumour model; host not given, bone; intravenous, 2 h, tumour-bearing): 0.21 %ID/g

A few entries again:
CC[N+](C)(CC)Cc1cc(Nc2ccnc3cc(Cl)ccc23)ccc1O — CC50 (Vero WNV replicon cells; 24 h): 23.2 ± 10.8 µM
C[C@@](O)(C(F)F)[C@H](NC(=O)c1ccc(C#CC#CC2CC2)cc1)C(=O)NO — apparent volume of distribution (Vz/F) (CD-1 mice; oral, 40 mg/kg, fasted): 8.9 ± 3.2 L/kg
